Measurements of several laboratories.
Parts stem from different laboratories: compare values within a part only. Changes are numbered by the printed parent chain.

Set 1
Target: RNA binding protein fox-1 homolog 2, RRM domain, GST-SBP tag (RBFOX2, Homo sapiens, UniProt O43251-10, residues 100-194)
Technique: RNA Bind-n-Seq
Form: RNA
Medium: in vitro
Concentration: 365 nM
Setting: natural RNA segment, single round, ends assumed
Baseline: no-protein control
Direction: higher = stronger binding
All sequences stand within: GGGAGUUCUACAGUCCGACGAUC … UGGAAUUCUCGGGUGCCAA
Construct (chain): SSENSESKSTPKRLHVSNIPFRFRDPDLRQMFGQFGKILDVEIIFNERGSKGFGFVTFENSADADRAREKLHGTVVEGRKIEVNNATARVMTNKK
| Strand | RBNS enrichment (R) |
| --- | --- |
| CUCGAAACAUGUGCAUGGCGUCUGUACGUGGCAGGUGGCAGGUGGUGUUGGCAAUGGUCCUGGAGGGAAUGGCCUGGGCGUAGGCUGCCUCCAGCUGCCCGUAACCACCG | 2.38 |
| CUCUCACUCCUCUGAGGCUUUCCUGGGGCCUCCUCCCAUCCUGCCAUGAGCAAUUGUUUGCUCUUGAAAACCUCACUGCAAGGCUGAGGCUGAGCUUCUGAUUCACCACC | 0.351 |
| AAGCCACAAGCCUGAACGAGCCUAAAAGCAUGGCGAGUUGGUGGAACCAGCGCCCCAUAGGCUAAGAUCUAUCAUUUACAGGUAGAAGUGGGGCCCGCACUCAGAACUGU | 0.538 |
| GCUGGUGCUCAGGAAGAGCUAGUGCCUUAGGUGGGGGAAGGCAGGACUCACGACUGAGAGAGAGAGGAGGGGGAUAUGACCACCCUGCCCCAUCUGCAGGAGCCUGAAGA | 0.499 |
| AAAGCAAGAAAUACAAAUAUCAGCAGACAGAAUAUAGUGAUCCCAUAGUAAUACACAUCUGCCUUUGUCUCUUCACUCAGAGUCAACUGAAAAAUUGCAGGCCAAAACCU | 0.599 |
| CAGCCAAGCUGUGCCCCAUCCCCCAAGCCUCCUGGGAGGAUCCAGCCAAAUCUUGCGACUCCUGGCACACACCUGUCUGUAACCUGUUUUGUGCUCUGAAAGCAAAUAGU | 0.274 |
| UUUUCUUUUCCUUCAGAGACCGUGACAGAGGGAGCUCUGUCAGCCGGAAGUUCAGGCCACCAGACGUAGUGAUUUGUAAGAAAUUACUGUCUCCUCAGUGAACCUCCUAG | 0.302 |
| CUCCGCGGCGUGGCUCCUGCUGCCAUCAGCUGCCUUCUCUGCUGAAGUCCAACUCAAGUCGGAGAGAGAGUGGAGCCUCUGCACUUGGGGAGUAGGUCAGUGUCAACUAA | 0.374 |
| CCAUACAGUACCUUGUUUAUCUGCUUCUUAAAGAAUCAGCCGAGACACCAUAAAAGAAAUAGGCUUUUUGUGCCUUUUGCUGUUAAUGUUUAAUUUACAAACUGUUUUGG | 0.665 |
| UGCUUUGUAUCAUACCCAAUAUUUAAGGACAAUUUGUCACUCAGAGGACUUUAGAGUUAUAUUCCAACAUUCAACCUAUAGAUAAGAAACAUUUCUAACCUUUGGUUUGC | 0.352 |
| AAGCGGCACUAAUGAAUUGUUCUUAAUCCGGCACGUCUAAUUUGACACGUUUUCAUGAAGGAAUAACUAAGUUAAAGUGAAAAUGGUUGUGAUUUACAGAAAUAAAAUCC | 0.244 |
| UGUGCAUAUAUUCUGUGAUGGGAAACAUUGUUGAUGUCCUAACAGAAAUAUAUUUUGAUCUAUUUUCCUAUGGAGUUGUUUCUAUUAUGACCAUUUAAUUUUGUUUUUAU | 1.64 |

Set 2
Target: CCNA2, cyclin fold, Cln2 fusion (human)
Technique: yeast growth competition, sequencing
Medium: yeast
Setting: strong parent motif
Baseline: not given
Direction: higher = stronger binding
Starting sequence: CDC25A docking peptide (human); PPHRRRLLFACSP
| Variant | normalised enrichment score |
| --- | --- |
| C11R | 1.88 |
| R5D | 0.285 |
| P2I | 2.25 |
| F9W | 1.7 |
| L7D | 0.411 |
| F9N | 1.58 |
| R5K F9L | 0.792 |
| L7T | 1.69 |
| L8H | 2.33 |
| A10N | 3.25 |
| L8I | 2.95 |
| P13E | 2.56 |
| R4L | 1.78 |
| R4H | 0.906 |
| A10P | 3.41 |
| P13N | 2.62 |
| A10E | 3.82 |
| R5C | 1.29 |
| P2R | 3.45 |
| H3D | 1.84 |
| C11G | 3.34 |
| P1N | 2.67 |
| A10W | 2.49 |
| C11E | 3.43 |
| L8Y | 3.17 |

Set 3
Target: Histone acetyltransferase KAT6A, winged helix 1, GST fusion (KAT6A, Homo sapiens, UniProt Q92794, residues 1-85)
Technique: protein binding microarray
Form: double-stranded DNA, one strand shown
Medium: in vitro
Concentration: not given
Setting: 8-mer, flanks averaged, mean of 2 arrays, mostly near background
Baseline: not given
Direction: higher = stronger binding
Target sequence (chain): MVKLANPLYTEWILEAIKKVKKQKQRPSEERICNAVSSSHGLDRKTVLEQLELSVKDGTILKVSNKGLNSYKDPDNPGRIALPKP
| Strand | E-score |
| --- | --- |
| CCATCGGC | 0.24 |
| AGACTCCT | -0.162 |
| GCAGATGC | -0.0984 |
| GACACGTA | -0.181 |
| GCTTAGTA | 0.123 |
| CACCTCAG | -0.154 |
| AGTTGTTC | -0.112 |
| ATGACATC | 0.0518 |
| CAAGTGGA | -0.196 |
| TACATTCA | -0.173 |
| CAGCTTGG | -0.34 |
| ACCCCGGG | 0.364 |
| AAACCGCT | 0.239 |
| CGTATGGC | 0.134 |
| CCCATGAG | -0.135 |
| ATAACTGA | -0.144 |
| CCCCGCAG | 0.29 |
| CTTCTAAC | -0.196 |
| GGGAAGAA | -0.0201 |
| ACTGTTCC | -0.0519 |
| CCCGCACG | 0.329 |
| AGGTGACG | 0.0186 |
| AAGGCTCA | -0.233 |
| AGTGGATC | -0.177 |
| GCTCGTAC | 0.0328 |

Set 4
Target: RING finger protein unkempt homolog, zinc fingers 1-6, GST-SBP tag (UNK, Homo sapiens, UniProt Q9C0B0, residues 30-357)
UniProt Q9C0B0, sequence (30-357, looked up): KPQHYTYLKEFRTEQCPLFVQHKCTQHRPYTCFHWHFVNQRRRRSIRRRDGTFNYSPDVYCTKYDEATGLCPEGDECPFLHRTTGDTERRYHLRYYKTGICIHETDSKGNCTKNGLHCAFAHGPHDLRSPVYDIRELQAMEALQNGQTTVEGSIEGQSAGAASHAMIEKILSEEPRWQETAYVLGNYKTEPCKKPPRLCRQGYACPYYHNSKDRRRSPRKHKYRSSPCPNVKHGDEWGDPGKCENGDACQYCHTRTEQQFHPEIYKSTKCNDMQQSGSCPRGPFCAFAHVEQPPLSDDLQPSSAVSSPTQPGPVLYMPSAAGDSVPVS
Technique: RNA Bind-n-Seq
Form: RNA
Medium: in vitro
Concentration: not given
Setting: RNA with constant flanks, human-mouse chimeric sites, ends assumed
Baseline: input RNA pool
Direction: higher = stronger binding
All sequences stand within: GGGAGUUCUACAGUCCGACGAUC … CAACAGAGGAUUGAGCAUCA
| Strand | bound/input enrichment [ratio] |
| --- | --- |
| CAACAGAGUCUAGGAUGGGUUCAUUACAUGAUUCAUGAGCCAGAACCACAUAUUCUUCUCUUUAGACGACCUCUUCCAAAAGAACAACAAAAAUGAAGUGCAGCUGGGAUCAUCUAAUCU | 0.299 |
| CUCGGCACCGGCACGCUUUACAUCGCUGAGAGCCGCCUGUCUUGGUUAGAUGGUUCGGGAUUAGGAUUCUCACUGGAAUACCCCACCAUUAGUUUACAUGCGGUGUCCAGGGAUCCAAAC | 0.391 |
| CAGCGCCGAGGCCGCGGUUUCCCCCUGGGCCUCCCCAGCAGCAGCCAUGGGCAUCAAAUUUUUAGAAGUUAUCAAACCUUUCUGUGCAGUUCUACCAGAAAUUCAGAAACCGGAAAGGAA | 2.31 |
| GAUCAUGAACCACCAUCCAGAAAUGAAAUGAGAUUACCCAGACGAGCCAAAACAGCUGCGCUACAGAAAAGUAAACUUAACCUUGCACCAAUUUCUCAUGAAGAUACAAGUUAAGAGAGC | 0.44 |
| AACUUCGUGCAUCGGUUUCCCUUUGUAGCUGUUUCAAUUGGCUUCCUUGUGAAUAAAGAGAUGGAGUUUGGAAUUGUGUACAGCUGUGUGGAAGGCAAGAUGUACACCGGCAGGAAAGGG | 0.297 |
| CUCGGCACUGGUACCCUUUACAUCGCGGAGAGCCGCCUGUCCUGGUUAGAUGGCUCUGGAUUAGGAUUCUCACUGGAAUACCCCACCAUUAGUUUACAUGCGGUGUCCAGGGAUCCAAAC | 0.824 |
| CCCCAAUACCAUUUGCAGGUCUGGAACUGCACUCUCUUUUUUAAAAAACAUGUAUACAUUUUAGGGCUGUAGACUUAUUUUCCUGGUUUUGUUUUUCAUUGCUGACUUUGAGCACAAGAA | 1.78 |
| UGUGCAUAUGAUGCUUGAGAUGGUUUUUGCAAAAGCAGAAAUCGCUGCAAGGUAAUCCUAAUAGAGAAAAGUGGUAUUUUAAACCUUUGAAAGGAAUGGAUGUAACUGUACCUUGGUACA | 0.471 |
| ACUCAGAGAUUAUAUUCCCAAAGUGCUGGGAGUAAAGGUGUGGCCACCACACCUAACUUGAUGGAUAUAUAUUUUUUCUCUUUUAUGUCUUCCUGUUCGUCCAGGGAAGAAAGAUUUGUU | 0.593 |
| GGGGAGAAACCUUACGAGUGUGUGCAGUGUGGGAAAUCCUACAGUCAAAGCUCAAAUCUCUUCAGACAUCAGAGAAGACACAAUGCAGAAAAACUUUUGAAUGUUGUGAAGGUUUAAGAA | 0.134 |
| UAACCACAUCAAGAUGGUUGGGAAGCUGAAGCAGAACUUACUCUUGGCAUGUCUGGUGAUUAGUUCUGUGACUGUGUUUUACCUGGGCCAGCAUGCCAUGGAGUGCCAUCACCGAAUAGA | 0.489 |

Set 5
Target: PABPC1L2, full length, GST fusion (mouse, UniProt A0ABA7IW68)
Technique: RNAcompete
Form: RNA
Medium: in vitro
Concentration: 20 nM
Setting: 7-mer, probes averaged, single round
Baseline: mean of 7-mers
Direction: higher = stronger binding
Residues (chain): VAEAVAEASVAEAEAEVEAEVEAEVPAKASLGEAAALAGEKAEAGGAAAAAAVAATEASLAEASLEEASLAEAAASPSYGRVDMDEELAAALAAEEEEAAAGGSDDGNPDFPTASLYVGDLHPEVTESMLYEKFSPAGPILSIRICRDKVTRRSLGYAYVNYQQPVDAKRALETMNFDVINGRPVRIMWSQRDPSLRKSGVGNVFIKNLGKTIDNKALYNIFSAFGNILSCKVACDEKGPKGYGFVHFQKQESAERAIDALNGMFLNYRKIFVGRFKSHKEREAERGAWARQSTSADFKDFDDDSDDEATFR
| Strand | 7-mer Z-score |
| --- | --- |
| GCAUCUU | -0.258 |
| CACGAUU | -0.0138 |
| CCACCGU | -0.333 |
| UGUCUCU | -0.275 |
| GACUUGA | -0.0772 |
| AUAUUUC | -0.199 |
| UGCUUGC | -0.215 |
| ACACAGC | -0.0645 |
| AGUGUAC | -0.0138 |
| ACAACUA | 0.18 |
| UGCGUUA | -0.356 |
| UCUUGUC | -0.45 |
| GAGUUAU | -0.208 |
| GCUACUA | -0.139 |
| UACCCAG | -0.296 |
| UCAUUUU | -0.289 |
| UGCUCGU | -0.423 |

For quick reference, copied from above (set 2):
| Variant | normalised enrichment score |
| --- | --- |
| R5K F9L | 0.792 |
| L7D | 0.411 |
| A10P | 3.41 |
| R4H | 0.906 |
| P13N | 2.62 |
| F9W | 1.7 |
| P1N | 2.67 |
| R5C | 1.29 |
| C11G | 3.34 |
| L8I | 2.95 |
| A10N | 3.25 |
| C11E | 3.43 |
| P2I | 2.25 |
| H3D | 1.84 |
